{"data": "Earlier results as cited in several papers", "note": "Lines come from different studies, so protocols differ.", "chain of UniProt Q86UE8 (whole entry, looked up)": "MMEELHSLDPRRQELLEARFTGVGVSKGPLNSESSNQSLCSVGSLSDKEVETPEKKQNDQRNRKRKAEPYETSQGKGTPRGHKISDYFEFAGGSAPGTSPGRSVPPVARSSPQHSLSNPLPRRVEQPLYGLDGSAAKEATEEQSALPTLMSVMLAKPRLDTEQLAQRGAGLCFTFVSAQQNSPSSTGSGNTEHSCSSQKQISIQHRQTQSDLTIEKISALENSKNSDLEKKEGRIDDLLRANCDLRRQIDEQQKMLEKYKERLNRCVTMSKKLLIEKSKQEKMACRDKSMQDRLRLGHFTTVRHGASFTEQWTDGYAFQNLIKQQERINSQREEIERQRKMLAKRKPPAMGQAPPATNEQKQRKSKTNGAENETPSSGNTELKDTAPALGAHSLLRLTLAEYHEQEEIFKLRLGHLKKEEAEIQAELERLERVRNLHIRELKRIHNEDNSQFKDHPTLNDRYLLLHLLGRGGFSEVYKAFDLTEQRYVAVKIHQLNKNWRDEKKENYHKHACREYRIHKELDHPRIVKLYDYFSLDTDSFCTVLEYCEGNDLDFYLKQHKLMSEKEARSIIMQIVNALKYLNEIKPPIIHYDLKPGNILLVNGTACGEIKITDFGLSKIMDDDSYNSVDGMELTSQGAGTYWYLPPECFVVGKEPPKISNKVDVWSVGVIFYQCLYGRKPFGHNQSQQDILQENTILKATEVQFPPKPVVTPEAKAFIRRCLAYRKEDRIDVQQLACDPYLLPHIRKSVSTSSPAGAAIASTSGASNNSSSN"}
{"Structure (SMILES)": "Cc1c(C)c2c(c(C)c1O)CCC(C)(COc1ccc(CC3SC(=O)NC3=O)cc1)O2 (stereo not drawn)", "system": "plasma", "setting": "literature value", "quantity": "fraction unbound", "result": 0.01}
{"Structure (SMILES)": "COc1cnc(-n2cnc(C)n2)c2[nH]cc(C(=O)C(=O)N3CCN(C(=O)c4ccccc4)CC3)c12", "system": "plasma", "setting": "hepatic impairment versus healthy", "quantity": "fraction unbound", "result": 0.182}
{"Structure (SMILES)": "CCN1CCC[C@H]1CNC(=O)c1c(O)c(Cl)cc(Cl)c1OC", "system": "plasma", "quantity": "fraction unbound", "result": "37%"}
{"Structure (SMILES)": "Nc1cc(C(F)(F)F)c(-c2nc(N3CCOCC3)nc(N3CCOCC3)n2)cn1", "target or system": "TLK2 (Homo sapiens, UniProt Q86UE8)", "assay": "enzyme activity", "setting": "10 µM", "how to read": "reference: untreated", "quantity": "remaining activity", "result": "74%"}
{"Structure (SMILES)": "COc1cccc2c1C(=O)c1c(O)c3c(c(O)c1C2=O)C[C@@](O)(C(=O)CO)C[C@@H]3O[C@H]1C[C@H](N)[C@H](O)[C@H](C)O1", "system": "plasma", "setting": "literature value", "quantity": "fraction unbound", "result": 0.3}
{"Structure (SMILES)": "CC(C)(CO)c1cc2cc(NC(=O)C3(c4ccc5c(c4)OC(F)(F)O5)CC3)c(F)cc2n1C[C@@H](O)CO", "system": "pregnant women, first trimester, 1-12 weeks gestation, maternal plasma", "quantity": "fraction unbound", "result": 0.009}
{"Structure (SMILES)": "NC(=O)N1c2ccccc2CC(=O)c2ccccc21", "system": "plasma", "quantity": "fraction unbound", "result": 0.35}
{"Structure (SMILES)": "C#Cc1cccc(Nc2ncnc3cc(OCCOC)c(OCCOC)cc23)c1", "system": "brain", "quantity": "fraction unbound", "result": 0.096}
{"Structure (SMILES)": "C=CC(=O)Nc1cc(Nc2nccc(-c3cn(C)c4ccccc34)n2)c(OC)cc1N(C)CCN(C)C", "system": "human plasma", "quantity": "fraction unbound", "result": "3.4%"}
{"Structure (SMILES)": "C[C@H]1Oc2cc(cnc2N)-c2c(nn(C)c2C#N)CN(C)C(=O)c2ccc(F)cc21", "system": "human plasma", "quantity": "fraction unbound", "result": 0.34}
{"Structure (SMILES)": "Cc1nn(C)cc1S(=O)(=O)NC(=O)c1ccc(-n2ccc(OCC(C)(C)C(F)(F)F)n2)nc1N1C[C@@H](C)CC1(C)C", "system": "microsomal incubation", "setting": "CYP2C8 Ki", "quantity": "fraction unbound", "result": 0.399}
{"Structure (SMILES)": "Cc1c(C(=O)O)ccc2c3n(nc12)[C@@H]1[C@H](C3)N(CC2CC2)[C@@]2(C(=O)Nc3cc(Cl)ccc32)[C@H]1c1cccc(Cl)c1F", "system": "stem cell medium", "quantity": "fraction unbound", "result": 0.022}
{"Structure (SMILES)": "O=C(O)Cc1ccccc1Nc1c(Cl)cccc1Cl", "system": "plasma", "setting": "literature value", "quantity": "fraction unbound", "result": 0.01}
{"Structure (SMILES)": "CC1(C)S[C@@H]2[C@H](NC(=O)[C@H](N)c3ccccc3)C(=O)N2[C@H]1C(=O)O", "target or system": "Acinetobacter baumannii", "system": "clinical isolate RKI-No_70/16", "quantity": "MIC", "result": "> 16 mg/L"}
{"Structure (SMILES)": "CC(C)(C)c1cc(C(C)(C)C)c(NC(=O)c2c[nH]c3ccccc3c2=O)cc1O", "system": "pregnant women, first trimester, 1-12 weeks gestation, maternal plasma", "quantity": "fraction unbound", "result": 0.001}
{"note": "Excerpt of the above:"}
{"Structure (SMILES)": "CC1(C)S[C@@H]2[C@H](NC(=O)[C@H](N)c3ccccc3)C(=O)N2[C@H]1C(=O)O", "target or system": "Acinetobacter baumannii", "system": "clinical isolate RKI-No_70/16", "quantity": "MIC", "result": "> 16 mg/L"}
{"Structure (SMILES)": "CC(C)(C)c1cc(C(C)(C)C)c(NC(=O)c2c[nH]c3ccccc3c2=O)cc1O", "system": "pregnant women, first trimester, 1-12 weeks gestation, maternal plasma", "quantity": "fraction unbound", "result": 0.001}
